# Measurements of several laboratories.
# Protocols differ between the studies behind these lines. ± marks the error that the study gave.
Structure (SMILES),test,test system,setting,scale,measurement,value
COC(=O)c1ccc2c(c1)NC(=O)/C2=C(\Nc1ccc2c(c1)CCN2C(=O)CN1CCOCC1)c1ccccc1,,beagle dog,"intravenous, 2 mg/kg",reference: liver blood flow,blood clearance,~100%
Oc1ccc2ccccc2c1/N=N/c1ccc(/N=N/c2ccccc2)cc1,,rat whole blood,"5.0 µg/L, 30 days, -20 °C, long-term storage",,measured concentration,5.07 µg/L
Cc1c(C(=O)Nc2ccn(C)n2)ncn1Cc1cccc(C(F)(F)F)c1,,"C57BL/6 mice, non-transgenic, plasma","oral, drinking water, 50 mg/kg daily, 10 days",,concentration at time point,238 ± 88.4 ng/mL
C[C@H]1Nc2nc(=O)c3[nH]ccc3n2Cc2ccc(Cl)cc21,,"Sprague-Dawley rat, male, plasma","oral, 125 mg/kg/day",reference: rat over human 15 mg,exposure ratio,85
Cn1c(=O)oc2ccc(-c3ccc(CC(C#N)NC(=O)C4CNCCCO4)c(F)c3)cc21 (stereo not shown),,human,"dose not given, single ascending doses, all subjects",,subjects with triglyceride increase,23.3%
COC(=O)c1ccc(-c2cn(Cc3cc(Cl)ccc3O[11CH3])nn2)cc1,,"C57BL/6 mouse, brain","iv, dose not given, 2 min",,radioactivity,2.58 %ID/cc
COc1ccc2cc(-c3ccc(-c4ccc(C)cn4)nc3)oc2c1,TCSPC,DMF,,,radiative decay rate constant,0.38 ns⁻¹
CCCC[C@H](NC(=O)CNC(=O)CNC(=O)CN1CCN(CC(=O)O)CCN(CC(=O)O)CC1)C(=O)N[C@H]1CC(=O)NCCCC[C@@H](C(N)=O)NC(=O)[C@H](Cc2c[nH]c3ccccc23)NC(=O)[C@H](CCCNC(=N)N)NC(=O)[C@@H](Cc2ccccc2)NC(=O)[C@H](Cc2c[nH]cn2)NC1=O [copper-64 labelled],,"female C57 mouse, B16/F1 melanoma","intravenous, 0.037 MBq, 0.5 h",reference: tumour over heart,uptake ratio,14.1
Cc1ccc(OCC(=O)N(Cc2cccs2)c2ccn[nH]2)cc1,,"male Sprague-Dawley rat, plasma","oral, 10 mg/kg, single dose",,AUC(0-t),1.64 ng·h/mL
NC12CNCCNCC(NCc3ccc(CNC(=O)CCCC(=O)NCc4ccc(-c5nncnn5)cc4)cc3)(CNCCNC1)CNCCNC2.[64Cu+2],OLINDA dosimetry,breasts,"pretargeting, 24-h interval",,mean absorbed dose,0.0325 rad/mCi
C[C@]12C[C@H](c3ccc(S(C)(=N)=O)cc3)C3=C4CCC(=O)C=C4CC[C@H]3[C@@H]1CC[C@@]2(O)C(F)(F)C(F)(F)F (stereo partly shown),,human liver microsomes,100 % absorption assumed,,maximal oral bioavailability,75%
CC(=O)N[C@H](C)c1cc(Cl)ccc1Cn1c(=S)[nH]c(=O)c2[nH]ccc21,,"Sprague-Dawley rat, male, plasma","oral, 125 mg/kg/day",reference: rat over human 15 mg,exposure ratio,1.6
CN1/C(=C/C=C/c2cc(-c3ccccc3)cc(-c3ccccc3)[o+]2)C(C)(C)c2ccccc21,,"male CD1 mice, plasma","intravenous, 1 mg/kg",,terminal half-life,0.227 h
CC(C)(O)c1ncc([S@](N)(=O)=NC(=O)Nc2c3c(cc4c2CCC4)CCC3)s1,,"human, plasma","oral, 3 mg, single dose, fasted, healthy volunteers",,AUC(0-t),3110 ng·h/mL
CC(C)(F)CC(NC(c1ccc(-c2ccc(S(C)(=O)=O)cc2)cc1)C(F)(F)F)C(=O)NCC#CBr (stereo not shown),LC-MS UV trace,aqueous buffer,"concentration not given, 23 h, pH 7.5, 37 °C, with: cysteine 10 mM",,cysteine adduct formation,55%
CCCCC/C=C/C=C/C(=O)NCC(C)C,,rat plasma,"15 ng/mL, three freeze-thaw cycles low QC",reference: nominal concentration,relative error,-2.67%
CN1CCN(Cc2ccc([C@H]3C[C@@]4(C)[C@@H](CC[C@@]4(O)C(F)(F)C(F)(F)F)[C@@H]4CCC5=CC(=O)CCC5=C43)cc2)CC1,,rat liver microsomes,100 % absorption assumed,,maximal oral bioavailability,88%
COc1cc(/C=C/C(=O)N2CCc3ccccc3C2)ccc1O[11CH3],PET-CT imaging,"C57BL/6 mouse, male, liver","intravenous, dynamic scan over 60 min",,maximum uptake,24.3 ± 0.16 %ID/cc
CC[C@H](C)[C@H](NC(=O)[C@H](N)Cc1ccc(O)cc1)C(=O)N[C@H]1CSSC[C@@H](C(=O)N(C)[C@H](C(N)=O)[C@@H](C)CC)NC(=O)[C@H](CCCNC(=N)N)NC(=O)[C@H](Cc2c[nH]cn2)NC(=O)[C@H](C)NC(=O)CN(C)C(=O)[C@H](Cc2c[nH]c3ccccc23)NC(=O)[C@H](CC(=O)O)NC(=O)[C@H](CCC(N)=O)NC(=O)[C@H](Cc2cn(C)c3ccccc23)NC(=O)[C@H](C(C)C)NC1=O,UPLC-ESI-MS,cynomolgus monkey plasma,"3.58 µg/mL, 24 h, 25 °C, bench-top after SPE",,recovery,103 ± 7.8%
O=C(CCc1ccc(CNC(C(=O)OC2CCCC2)C2CCCCC2)cn1)NO (stereo not shown),,"human, plasma","oral, 5 mg, single dose, patients",,Cmax,16.5 ng/mL
CC(C)[C@H](NC(=O)[C@@H]1CCCN1C(=O)[C@H](CCCNC(=N)N)NC(=O)[C@H](CS)NC(=O)[C@H](Cc1c[nH]c2ccccc12)NC(=O)[C@H](CCCNC(=N)N)NC(=O)[C@@H](Cc1ccccc1)NC(=O)[C@H](Cc1c[nH]cn1)NC(=O)[C@H](CCC(=O)O)NC(=O)[C@H](CS)NC(=O)[C@H](CS)NC(=O)CNC(=O)[C@@H]1CC(=O)N[C@@H](CCCNC(=N)N)C(=O)NCC(=O)N[C@@H](CC(=O)O)C(=O)N[C@H](Cc2ccc(O)cc2)C(=O)N1)C(N)=O [technetium-99m labelled],,C57 mice B16/F1 melanoma female,"iv, 2 h, with: NDP-MSH blockade",reference: tumour over muscle,tumour-to-tissue ratio,5.98
OCc1cn(Cc2ccc(-c3noc(-c4ccc(OCC[18F])c(C(F)(F)F)c4)n3)cc2)nn1,,"rat, brain","intravenous, 5 min",,tracer uptake,0.49 %ID/g
CCOc1ccc2c(c1)C(C)=CC(C)(C)N2c1cc(OCC)cc2c1NC(C)(C)C=C2C,LC-MS/MS,"piglets, kidney","oral in feed, 50 mg/kg feed ethoxyquin, 42 days",,tissue residue,21.3 ± 6.5 ng/g
Cn1cc(-c2cc(N3CCCS3(=O)=O)ccc2N[C@H]2CC[C@H](C)CC2)c2cc[nH]c2c1=O,,"Sprague-Dawley rat, plasma","intravenous, 1 mg/kg",,Vss,8.78 L/kg
[11CH3]c1ccc2nc(C3CCC3)n(-c3ccc4[nH]ncc4c3)c2n1,,"human female, small intestine",,,absorbed radiation dose,16 µSv/MBq
CN1CCC[C@]1(C)/C=C/S(=O)(=O)NC(=O)Nc1c2c(cc3c1CCC3)CCC2,,"human, plasma","oral, 25 mg, single dose, healthy volunteers",,AUC(0-inf),27100 ng·h/mL
CCNC(=O)c1noc(-c2cc(C(C)C)c(O)cc2O)c1NC(=O)CCN1CCOCC1,,"CD1 nude mouse A-431 xenograft, plasma","intraperitoneal, 80 mg/kg",,CL/F,188 mL/min/kg
CC(C)CCN(c1nc(C#N)nc(NC2COC2)n1)C(C)c1ccc(F)cc1 (stereo not shown),,female CD-1 mice,"intraperitoneal, 10 mg/kg, 2 h",,brain concentration,82.5 ng/g
COc1cc2c(cc1OC)CN(CCCCn1ccc3cc(OCC[18F])ccc31)C2,,male ICR mice,"intravenous, 15 min post-injection",,spleen uptake,11.3 ± 1.27 %ID/g
NCCCC(=O)OCC(=O)c1ccc(O)c(C(F)(F)F)c1,pump-probe transient absorption,water,,,triplet lifetime,0.39 ns
"CNC(=O)N[C@]1(C)CCC[C@@]2(C)C3CC[C@@]4(C)C[C@]3(CCC21)CC4=O (single isomer, unassigned)",,rat plasma,"1.5 ng/mL, 101 d, -80 °C, long-term storage stability",reference: nominal concentration,relative error,-2.4%
CCCC[C@@H]1NC(=O)[C@@H](NC(=O)[C@H](CCC(=O)O)NC(=O)CNC(=O)CN2CCN(CC(=O)O)CCN(CC(=O)O)CCN(CC(=O)O)CC2)CCCCNC(=O)C[C@@H](C(N)=O)NC(=O)[C@H](C(C)C)NC(=O)[C@@H]2CCCN2C(=O)[C@H](CCCNC(=N)N)NC(=O)CNC(=O)[C@H](Cc2c[nH]c3ccccc23)NC(=O)[C@H](CCCNC(=N)N)NC(=O)[C@@H](Cc2ccccc2)NC(=O)[C@H](Cc2c[nH]cn2)NC(=O)[C@H](CCC(=O)O)NC1=O [gallium-67 labelled],,C57 mice with B16/F1 melanoma,"intravenous, 0.037 MBq/mouse, 2 h",reference: tumour over lung,tumour to lung ratio,646
Nc1ncnc2c1nc(-n1nnc3c1CCC1C(CO)C1CC3)n2C1CC(O)C(CO)O1 (mixture of isomers),frequency-domain fluorometry,methanol,,,average fluorescence lifetime,1.6 ns
COc1ccc([C@@H]2CC(=O)c3c(O)cc(O[C@@H]4O[C@H](CO[C@@H]5O[C@@H](C)[C@H](O)[C@@H](O)[C@H]5O)[C@@H](O)[C@H](O)[C@H]4O)cc3O2)cc1O,,rat plasma,"15.62 ng/mL, 12 h, room temperature, autosampler stability",reference: nominal concentration,relative error,8.49%
COCC1CN(C2CCN(c3cc(OC)c(Nc4ncc(Br)c(Nc5ccc6c(c5P(C)(C)=O)OCCO6)n4)cc3C)CC2)C1,,human,"oral, 10 to 240 mg once daily, safety set, grade ≥3",,patients with vomiting,3.7%
CC12CC(c3ccc(S(C)(=O)=O)cc3)C3=C4CCC(=O)C=C4CCC3C1CCC2(O)C(F)(F)C(F)(F)F (stereo not shown),,"human, plasma","intravenous, 15.7 µg, [14C] microdose, geometric mean",,total clearance,7.22 L/h
CC12CC3CC(C)(C1)CC(NC(=O)Nc1ccc(C(=O)N4CCCC(C(N)=O)C4)cc1)(C3)C2 (stereo not shown),,"Sprague Dawley rats, both sexes, plasma","oral, 10 mg/kg",,Vz,224 L
CCC(=O)N[C@@H](C)C(=O)OCC(=O)N[C@@H](C)C(=O)O,,water,"pH 7, 50 °C",,depolymerization half-life,14.1 h
Cc1cc(O)cc(O)c1C(=O)c1c2c3c(c(O)cc(C)c3oc1=O)C(=O)c1c(O)cc(O)cc1-2,,"KM mouse male, plasma","intraperitoneal, 15 mg/kg",,CL/F,11 mL/min/kg
O=[11C](OC(C(F)(F)F)C(F)(F)F)N1CCC(CNS(=O)(=O)c2ccc(Cl)cc2)CC1,PET,"Sprague-Dawley rat, cerebral cortex",intravenous,,uptake,1.75 SUV
